Results of several laboratories.
Compare with care: the assays were run in different laboratories. ± marks the error that the study gave.

| Compound | cell line | test | conditions | IC50 |
| --- | --- | --- | --- | --- |
| CN1CCCNC(=O)CCC(=O)NCCCN(C)CCCNc2cccc3c2C(=O)c2cccc(c2C3=O)NCCC1 | HSC-2 | cell growth or viability, CCK-8 | 48 h | > 20 µM |
| CC(C)(O)C(O)COc1c2ccoc2cc2oc(=O)ccc12 (single isomer, unassigned; (+)) | L5178Y | cell growth or viability, MTT | 24 h | > 100 µM |
| COC(=O)[C@@H]1[C@@H](OC)[C@H](OC(=O)c2cc(OC)c(OC)c(OC)c2)C[C@@H]2CN3CC[C@]4(O[C@@H]3C(=O)[C@@H]21)C(=O)Nc1cc(OC)ccc14 | SU-DHL-4 | cell growth or viability, trypan blue | 72 h | 2.93 µM |
| CC(C)c1cccc(C(C)C)c1N1CCN(c2c(C(C)C)cccc2C(C)C)C1=[Se].[Cl][Au] | H157 spheroids | acid phosphatase | 72 h, 3D spheroid | 8.3 ± 0.4 µM |
| COc1cccc(-c2ccc(Nc3ccc(CN(C)C)cc3)c(OC)c2F)c1 | HCT-15 (KRAS G13D) | cell viability, CellTiter-Glo | 72 h | 6 ± 0.3 µM |
| Cc1cc(C)c([N+]#[C][Pd-]([Cl])([Cl])=[C](Nc2ccc(CN[C](NC(C)(C)C)=[Au][Cl])cc2)Nc2c(C)cc(C)cc2C)c(C)c1 | OVCAR-3 | cell growth or viability |  | > 100 µM |
| CC(C)c1cccc(C(C)C)c1-n1ccn(-c2c(C(C)C)cccc2C(C)C)c1=[Se].[Cl][Au] | H157 spheroids | acid phosphatase | 72 h, 3D spheroid | 28.2 ± 5.2 µM |
| CSC[C@@H]1C(=O)O[C@H]2[C@H]1CC/C(C)=C/CC[C@@]1(C)O[C@@H]21 | KG-1a | cell growth or viability, MTT | 72 h | > 50 µM |
| C#Cc1cccc(Nc2ncnc3cc(OC)c(OCCCN4CCOCC4)cc23)c1 | PC-9 | cell growth or viability, SRB | 72 h | < 1 µM |
| COc1cc(-c2coc3cc(O)cc(O)c3c2=O)ccc1O | MDA-MB-231, Huh-7, KKU100, NHDF cells | cell viability, MTT | 24 h | > 100 µM |
| Cc1cc(C)c([N+]#[C][Pt-]([Cl])([Cl])=[C](Nc2cccc(CN[C](NC(C)(C)C)=[Au][Cl])c2)Nc2c(C)cc(C)cc2C)c(C)c1 | OVCAR-3 | cell growth or viability |  | > 100 µM |
| C=C1C(=O)OC2C1CCC1(C)CC1CCC1(C)OC21 (centres unmarked) | B117P murine AML cells | cell growth |  | 2.9 ± 0.6 µM |
| C[C@@H]1Cc2c([nH]c3ccccc23)[C@@H](c2c(F)cc(/C=C/C(=O)O)cc2F)N1C12CC(C1)C2 | MCF7 | cell growth or viability, ATP luminescence | 6 days | 0.0004 µM |
| [NH2][Pt]1([NH2])([Cl])([O]C(=O)C(Cl)Cl)[O]C(=O)C2(CC(=O)C2)C(=O)[O]1 | BGC803 | cell growth or viability, MTT |  | 57.7 µM |
| CN(C)C(=S)N(C)N=Cc1ccccc1SSc1ccccc1C=NN(C)C(=S)N(C)C | breast, ovarian, colorectal cancer cells | MTT | 72 h, four cancer cell lines | < 0.4 µM |
| Cc1cc(C)c([N+]#[C][Pt-]([Cl])([Cl])=[C](Nc2ccc(CN[C](Nc3c(C)cc(C)cc3C)=[Au][Cl])cc2)Nc2c(C)cc(C)cc2C)c(C)c1 | OVCAR-3 | cell growth or viability |  | > 100 µM |
| CC(C)(C)c1cc(=O)n2ncc(-c3ccc(F)cc3)c2[nH]1 | SW620 cells | colony formation |  | 0.34 µM |
| CCc1ccc([C@H](C)CC(=O)NC(=O)N[C@@H]2O[C@H](COC(C)=O)[C@@H](OC(C)=O)[C@H](OC(C)=O)[C@H]2OC(C)=O)cc1 | L1210 | cell growth or viability | 48 h | 71 µM |
| Cc1ccc(-c2nc(-c3ccccc3)c(-c3ccccc3)[nH]2)s1 | human foreskin fibroblasts HFF | cell viability, colorimetric | 72 h | > 1000 µg/mL |
| COc1cc(-c2nc3ccc(C(=O)NCCCN(C)C)cc3n2C2CCC2)cc(OC)c1OC | 293 T-BRE-Luc | reporter gene, inhibitor | 6 h, together with: BMP2-induced BMP2 5 ng/mL | 2.14 µM |
| CCCCCCCCCCCCCCCCCCCCCCCC(=O)OCC(O)CO (centres unmarked) | J774.2 | NO release, inhibitor | LPS-stimulated | > 100 µg/mL |

| Compound | cell line | test | conditions | IC50 |
| --- | --- | --- | --- | --- |
| Cc1c(C)n(-c2c(C(C)C)cccc2C(C)C)c(=[Se])n1-c1c(C(C)C)cccc1C(C)C.[Cl][Au] | PSN1 | cell growth or viability, MTT | 72 h | 0.3 µM |
| CN(C)c1ccc(/C=C2\Oc3cc(O)ccc3C2=O)cc1 | PC-9 | cell growth or viability, MTT | 72 h | 14.1 µM |
| Nc1ccn([C@@H]2O[C@H](CSSc3ccccn3)[C@@H](O)[C@H](F)[C@H]2O)c(=O)n1 | L1210 | cell growth or viability |  | > 500 µM |
| C(=C\c1cnc2[nH]c3ccc(-c4ccc(OCc5nnn[nH]5)cc4)cc3c2c1)/c1ccccc1 | parental Ba/F3 (IL-3 dependent) | cell proliferation, [3H]-thymidine incorporation |  | 7.3 µM |
| C/C1=C\CC[C@@]2(C)O[C@H]2[C@H]2OC(=O)[C@@H](CSC(=S)N(C)C)[C@@H]2CC1 | KG-1a | cell growth or viability, MTT | 72 h | 4.8 µM |
| CC(C)Cc1ccc(C(C)C(=O)[O][Pt]([NH2])([NH2])([Cl])([Cl])[O]C(=O)C(Cl)Cl)cc1 (centres unmarked) | 2008 cisplatin-sensitive | cytotoxicity, MTT | 72 h | 0.32 ± 0.09 µM |
| Cc1ncsc1-c1ccc(C(CO)NC(=O)C2CC(O)CN2C(=O)C(C(C)C)n2cc(-c3ccc(COc4c(-c5c(C)c(F)cc6[nH]ncc56)c(C5CC5)cc5c(N6CC7CC6CN7)nc(OC6CCOCC6)nc45)cc3)nn2)cc1 (centres unmarked) | HT-29 (KRAS wild type) | cell growth, CellTiter-Glo | 144 h, 3D culture | > 10 µM |
| O=C(O)c1n[nH]cc1-c1nc2ccc3[nH]ncc3c2c2c1CCCC2 | MV4-11 | cell growth or viability, resazurin | 72 h | > 5 µM |
| Cc1cc(C)c(-n2c3c([n+](-c4c(C)cc(C)cc4C)[c]2[Cu-][Cl])-c2cccc4cccc-3c24)c(C)c1 | PSN1 | cell growth or viability, MTT | 72 h | 4 µM |
| CC(C)c1cccc(C(C)C)c1-n1c(Cl)c(Cl)n(-c2c(C(C)C)cccc2C(C)C)c1=[Se].[Cl][Au] | A2780 ADR | MTT | 72 h | 0.2 ± 0.02 µM |
| O=c1[nH]c(=O)n([C@@H]2O[C@H](CSSC[C@H]3O[C@@H](n4cc(F)c(=O)[nH]c4=O)[C@H](O)[C@@H](F)[C@@H]3O)[C@@H](O)[C@H](F)[C@H]2O)cc1F | L1210 | cell growth or viability |  | 231 µM |
| CN1CCN(Cc2cccc(-c3ccc4[nH]c5ncc(/C=C/c6ccccc6)cc5c4c3)c2)CC1 | parental Ba/F3 (IL-3 dependent) | cell proliferation, [3H]-thymidine incorporation |  | 2.2 µM |
| CC(=O)OC[C@H]1O[C@@H](NC(=O)COc2ccc(-c3ccccc3)cc2)[C@H](OC(C)=O)[C@@H](OC(C)=O)[C@@H]1OC(C)=O | L1210 | cell growth or viability | 48 h | 139 µM |
| C=C1CC(OC(=O)C(C)(O)CCl)C2C(=C)C(=O)OC2C2C1CC(O)C2(O)CCl (centres unmarked) | HEKa | cell growth or viability |  | 0.5 µg/mL |
| CCCC(CCC)C(=O)[O][Pt]([NH2])([NH2])([Cl])([Cl])[O]C(=O)C(Cl)Cl | 2008 cisplatin-sensitive | cytotoxicity, MTT | 72 h | 1.12 ± 0.2 µM |
| [Cl][Au].[Se]=c1n(C23CC4CC(CC(C4)C2)C3)ccn1C12CC3CC(CC(C3)C1)C2 | LoVo-OXP (oxaliplatin-resistant) | MTT | 72 h | 4.9 ± 1.1 µM |
| CCC(C(=O)O)C1CCC(C)C(C(C)C(O)C(C)C(=O)C(CC)C2OC3(C=CC(NCc4cn(C56CC7CC(CC(C7)C5)C6)nn4)C4(CCC(C)(C5CCC(O)(CC)C(C)O5)O4)O3)C(C)CC2C)O1 (centres unmarked) | HMLER CD24low/CD44high | cell proliferation | 72 h | 0.03 ± 0.002 µM |
| CC(C)c1ccc(/C=C/C(=O)NC(=O)N[C@@H]2O[C@H](CO)[C@@H](O)[C@H](O)[C@H]2O)cc1 | L1210 | cell growth or viability | 48 h | 25 µM |
| Cc1nc(Nc2ncc(C(=O)Nc3c(C)cccc3Cl)s2)cc(N2CCN(CCOC(=O)[C@@H](N)CCC(=O)O)CC2)n1 | BV-173 | cell growth or viability, MTT | 72 h | 6.07e-05 µM |
| Oc1ccc(-c2csc(Cc3ccccc3)n2)c(O)c1 | patient-derived fibroblasts | cell growth, PrestoBlue | 72 h | 67.1 µM |

Some of these lines once more:
| Compound | cell line | test | conditions | IC50 |
| --- | --- | --- | --- | --- |
| Cc1cc(C)c([N+]#[C][Pt-]([Cl])([Cl])=[C](Nc2cccc(CN[C](NC(C)(C)C)=[Au][Cl])c2)Nc2c(C)cc(C)cc2C)c(C)c1 | OVCAR-3 | cell growth or viability |  | > 100 µM |
| C=C1C(=O)OC2C1CCC1(C)CC1CCC1(C)OC21 (centres unmarked) | B117P murine AML cells | cell growth |  | 2.9 ± 0.6 µM |
| C[C@@H]1Cc2c([nH]c3ccccc23)[C@@H](c2c(F)cc(/C=C/C(=O)O)cc2F)N1C12CC(C1)C2 | MCF7 | cell growth or viability, ATP luminescence | 6 days | 0.0004 µM |
| [NH2][Pt]1([NH2])([Cl])([O]C(=O)C(Cl)Cl)[O]C(=O)C2(CC(=O)C2)C(=O)[O]1 | BGC803 | cell growth or viability, MTT |  | 57.7 µM |
